# Measured values from different studies.
# Numbered parts are unrelated; each lists some results of a single study.

# Block 1 — technique: protein-binding microarray; molecule type: double-stranded DNA, one strand shown; sample: in vitro; tested at: 250 nM; setting: 60-bp whole probe; added: salmon DNA 0.4 mg/ml; relative to: random background probes; reading: higher = stronger binding; constant ends, left off below: GCCTAGCAC … GTCTTGATTCGCTTGACGCTGCTG
# Target: Interferon regulatory factor 5, full length, phosphomimetic (IRF5, Homo sapiens, UniProt Q13568-2, residues 1-514, K96S/S451D/S453D/S456D/S462D)
Strand,log fluorescence [z-score]
GACGGTATACTACTGCTGACGTGCTAG,-0.134
TGAGATTTCCATTATTGCTTGTGCTAG,0.633
TTAGATACCAGACTGGATTAGTGCTAG,0.101
AGTTTTTACTTTCTGAATGCGTGCTAG,4.34
GACGGTTTCGATATCGGGACGTGCTAG,8.91
TTAGGTCTCCTTTTTCTTTAGTGCTAG,0.482
GACGGACTGGGGACGGGGGACGTGCTA,0.922
GACTATATCAGACTGGAGACGTGCTAG,0.00161
GACGGTATCGACTTTCGGTACGTGCTA,9.42
TTAGCTCTCAGTTTCGATTAGTGCTAG,9.5
TGTTTTTGCTTTCTTTATGTGTGCTAG,3.05
GTCGGTCTCCTACTGCTGACGTGCTAG,-0.103
GACGAACTGGGGTTTCGAGATGTGCTA,1.39
GACGGTCGCCTTCTCCTGACGTGCTAG,-0.335
GAAGGTATCGGTCTCGGGACGTGCTAG,4.78
AACTAAAGAGACCACAAAAAGTGCTAG,0.353
TTTGGACTGGGTTTCGGTTAGTGCTAG,8.14
TCCCCTTCTACTCTCCTGCAGTGCTAG,0.0595
TTAGGTTCCCTTTTCCTTTTGTGCTAG,0.793
CTCTGTCTGGGATGTAATTCCGTGCTA,-0.0659
GAGGGACTGGGTTTCGGGACGTGCTAG,2.19
GACGATATCAGTCTCGACACGTGCTAG,1.37
TTAGGTCTCGGTCTCGGGTAGTGCTAG,0.407
GACGAACTGAGCATCGAGACGTGCTAG,-0.0763
TCACCTTGAACTTTGGCACTGTGCTAG,0.108

# Block 2 — technique: RNA Bind-n-Seq; molecule type: RNA; sample: in vitro; tested at: 365 nM; relative to: no-protein control; reading: higher = stronger binding
# Target: RNA binding protein fox-1 homolog 2, RRM domain, GST-SBP tag (RBFOX2, Homo sapiens, UniProt O43251-10, residues 100-194)
# Setting: natural RNA segment, single round, ends assumed
# Constant ends, left off below: GGGAGUUCUACAGUCCGACGAUC … UGGAAUUCUCGGGUGCCAA
# Residues (chain): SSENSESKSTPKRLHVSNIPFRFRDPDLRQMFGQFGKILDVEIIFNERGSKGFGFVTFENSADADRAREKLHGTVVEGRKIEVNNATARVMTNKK
Strand,RBNS enrichment (R)
AGCAGAGUGGAAAAAUCUGUCUUUAUGGUAUGUUCUAGGUGUAUUGUGAUUUACUGUUAGAUUGCCAAUAUAAGUAAAUAUAGACAUAAUCUAUAUAUAGUGUUUCACAA,0.609
UUUGUUGUUGAAUCCGGGUAUCCAGGCUGAGAAGGGAAGAAAAAUAGCCACUAACUCUGCAACAAUCCUUGGCUGUUGUCAUUGUUGUCUUUAUUUUAGGCUGGAUUUCA,1.1
AAGCUAAAGGACCUGCCUAGGAUUAUAAUAUUUGAAGAAUGAACUUUUAAAUUCUUGCAAUAACGAAACCCUGCCUCCUUGACUAUUUGAACUCAGUUCUCCAUCUAAAC,0.321
ACAAAGAAGGAGUUGGAGAUGAAAAAGUGGUACUGUGUCAAGGGAAGAUUUUUGUGAGUUUUCCAUCAUGUUGGCCAUCACAUCCUGACUGAAGUCUCAAGAUUCCUGGA,0.226
UGUCAGUACCAUGUCUACCCAUUGCCAUGAACUGUGGUCUAUAGAAAGGAAGUGAAAGGUAAAUAGUCACCUACGGUCCUAGGAACCAUGCCUGCCACCUAACCACCUAC,0.319
GUGUAUCACCUGGUGAGCGAGUGACUGAAACCUGCUCUGGUCUGGGUUUGACCAGGUUAGGACUAUUCUUUCUGUGAAGGAUUGUUUGAUUGUAGUAACUCUAUUGGCAU,0.438
GUUGUUGUUGUUGUUGUUUUUCCUUAAUUUGAAAUCAUCUUAUUUUUUAAGACAAAUGUGAAAAUGACCAAAUCACACCAAGCAACUAACUCAAAAAUUAGGAUGCAAGA,0.42
CAUCUGUGUAGUCCUCAUACUGUUUACUGAUAACCCACAAAUUCAUUUUCAUGGCAGACCUAAGCUCAGACCCUGCCUUGUCCUGGCAAGCAUAGGUUUUCCCAGACCAC,0.469
AUUUUCAGGAAAUCACUGUAUUAGGAAUGUGCAAUGACUUAUAUAAAUAAAAGCCAUUUUUAAAACUUUUGGGGCUUGUGUUCUAAUUAUUCCCCCCUUUUUUUUAUUUC,0.948
AGGCUGAGCUUCUGAUUCACCACCCCAGGGCCUCCUUAUAGUUCUCUGCACACAAUAGGUGCUUCUUGGAUGUUCUUGGGUUUGGAAAUAAGUGGAAAAUACGGGAUGUA,2.11
GAGCAAGUGACCGUUGAGGACAGGUGAUGUGAAUGUUUGUUCUAGAUUUAAUUCAGUUUUCUGAAUGGACACAGGGAGUUGGGAGUAUGUGUGUGUGUGUGUGUGUGUGU,21.9
AUGUGGCUCAGCAGCAAGAAAGGCAAGUUGCUCCUGCUGGGGCCCUGGACUCUGCCUUAGCUCCCACCUCUCAGCCUUGUUAUUGGGUUUCAUGCCCCUGGACCAGCCUU,0.854

# Block 3 — technique: RNA Bind-n-Seq; molecule type: RNA; sample: in vitro; tested at: not given; setting: RNA with constant flanks, ends assumed; relative to: input RNA pool; reading: higher = stronger binding
# Target: RING finger protein unkempt homolog, zinc fingers 1-6, GST-SBP tag (UNK, Homo sapiens, UniProt Q9C0B0, residues 30-357)
# UniProt Q9C0B0, sequence (30-357, looked up): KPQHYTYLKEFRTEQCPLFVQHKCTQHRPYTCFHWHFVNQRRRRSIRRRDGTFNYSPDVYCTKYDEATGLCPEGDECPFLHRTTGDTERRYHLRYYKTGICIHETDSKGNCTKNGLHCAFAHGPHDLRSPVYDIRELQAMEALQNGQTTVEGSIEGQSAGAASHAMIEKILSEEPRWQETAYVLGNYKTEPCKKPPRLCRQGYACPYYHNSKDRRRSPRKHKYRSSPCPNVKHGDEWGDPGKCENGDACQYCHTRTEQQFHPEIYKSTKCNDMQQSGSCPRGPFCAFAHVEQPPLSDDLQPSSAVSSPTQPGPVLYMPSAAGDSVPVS
# Constant ends, left off below: GGGAGUUCUACAGUCCGACGAUC … CAACAGAGGAUUGAGCAUCA
Strand,bound/input enrichment
GGAGACGUUUGAUGCAAAUGAUUUGUAUCAGGGGCAGAAUUUUAACAAGGUCCUCAGUUCCUCCGUGACUCUAAAUAAAGUAACAGCAGACAUCGGGCUGGGGAGUGACUCCGUGUGUGC,0.278 ratio
GCUCCUAUUAAUGAGGUGGCAAGAUUUAACCUGAUGCAGGUUGGCCGCCUUUUGCAGCAGCCCGCAAUGACUGGCACUGAAGAAGGAGAUCCCCGGACCAAAAAUAGCCUUGGAAAAUUU,0.356 ratio
CAAGAUAAAUUUCAGACCAUGUCUGACCAGAUCAUUGGGAGAAUUGAUGAUAUGAGCCGUCGCAUUGAUGAUCUGGAAAAGAAUAUCGCGGACCUCAUGACACAGGCUGGGGUGGAAGAA,0.464 ratio
UUACAGUCAUUGAUGGACUCUAUUUUUUUAUUAUUACUUGGACCUUGGUCGUUUUUAUACCCGCAAAAAAAUGUCUUGUUUUAAUUUGUGUUUUUUGGGGGGGCGGGUGGGCGGGCGGGA,1.32 ratio
UGGACGAACCAUAAAUUCAACGUGACUGGCACCCCAGAACAAUAUGUACCUUAUUCUACCACCCGAAAGAAGAUUCAGGAGUGGAUCCCACCUUCAACACCUUACAAGUAAAGACAAUGA,0.464 ratio
GAGCUGGGAUACAAGCAAGAAAGAUCUGACUGAAUAUUUGUCUCGAUUUGGGGAAGUGGCCGACUGCACAAUUAAAACAGACCCAGUCACGGGAAGAUCAAGAGGAUUUGGAUUUGUGCU,0.492 ratio
UAACUUAUUUUUCGUUAAAGUUUGACUGAAACACGCUUCUACCAAAUACAGUAUAAAUAAUCCGGCCGUCUUAAUGCCUUUCCUAUUUUUUUUUCCUUUUCACACAAAAUGUACACAAAG,1.67 ratio
UAUAUUUUGGAUUCUGUUUGUGUUGAAUUUUUUAAUCAUUGUGCACAGAAGCAUCAUUGGCCGCUUUUAUAUGCAAAUGGUCAUUUCAGAUGUAUGGUGUUUUUACACUACAAAGAAGUC,0.126 ratio
CUGGGUAUUAUUUCUCGAGCUGUUAAACACCUUUUUAAGAGUAUUGAAGAAAAAAAACACACCGCAAUUAAAAAUGGGCUUCCUGCUCCAGAUUUUAAAGUGAAUGCCCAAUUCUUAGAG,0.569 ratio
AGGACAGGGUUAGGAUUGGCAAGGAGAGGGGCAGGAAGGUGGGGGGGGGGGUGGUGGCUCCCGUACCGGGGAGAAUAUUCCACAGAACUGUGACUAUGGCUUGGGGCAGGGGUGGGUGUG,0.391 ratio
GAAGAUAAGCUGGAAUGUUCUGAAGAACUGGGUGAUCUCGUUAAAUCUGUGGACCCAACAUCCGCACUGAGUGUUUACCUCAGGGCCAAUGUACCUAAUAAAGUCAUCCAGUGCUUUGCA,0.12 ratio

# Block 4 — technique: protein binding microarray; molecule type: double-stranded DNA, one strand shown; sample: in vitro; tested at: not given; relative to: not given; reading: higher = stronger binding
# Target: Histone acetyltransferase KAT6A, winged helix 2, GST fusion (KAT6A, Homo sapiens, UniProt Q92794, residues 85-181)
# Setting: 8-mer, flanks averaged, mean of 2 arrays, mostly near background
# Target sequence (chain): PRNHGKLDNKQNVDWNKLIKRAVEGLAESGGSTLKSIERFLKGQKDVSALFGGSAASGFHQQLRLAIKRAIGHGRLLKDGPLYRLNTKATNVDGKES
Strand,E-score
GGGACACA,0.0592
CTTAATCC,-0.2
AGTCTAAG,-0.0809
AATCAGAA,-0.000555
ATAGGATA,-0.084
ACACTTCT,-0.1
AGCAAGAC,0.124
ATCTGGTC,0.00422
AATCTTTC,-0.0875
CTCTTGGA,0.179
CCGTAGTA,-0.176
AGCAGAAT,0.152
AGTCTCCA,-0.0329
GATGTGCC,-0.023
GACGTCGC,-0.0752
CTTTCTTC,0.0176
GACTGAAC,0.0143
AGCGTTAT,-0.234
GCCACACA,0.136
GCAGGGGC,0.188
GAGCCGAC,-0.0421
ACCTGCCT,0.0871
CTGTGACA,0.0114
ATCAATAG,-0.0278

# Excerpt of the above (block 2):
Strand,RBNS enrichment (R)
ACAAAGAAGGAGUUGGAGAUGAAAAAGUGGUACUGUGUCAAGGGAAGAUUUUUGUGAGUUUUCCAUCAUGUUGGCCAUCACAUCCUGACUGAAGUCUCAAGAUUCCUGGA,0.226
UGUCAGUACCAUGUCUACCCAUUGCCAUGAACUGUGGUCUAUAGAAAGGAAGUGAAAGGUAAAUAGUCACCUACGGUCCUAGGAACCAUGCCUGCCACCUAACCACCUAC,0.319
GUGUAUCACCUGGUGAGCGAGUGACUGAAACCUGCUCUGGUCUGGGUUUGACCAGGUUAGGACUAUUCUUUCUGUGAAGGAUUGUUUGAUUGUAGUAACUCUAUUGGCAU,0.438
GUUGUUGUUGUUGUUGUUUUUCCUUAAUUUGAAAUCAUCUUAUUUUUUAAGACAAAUGUGAAAAUGACCAAAUCACACCAAGCAACUAACUCAAAAAUUAGGAUGCAAGA,0.42
CAUCUGUGUAGUCCUCAUACUGUUUACUGAUAACCCACAAAUUCAUUUUCAUGGCAGACCUAAGCUCAGACCCUGCCUUGUCCUGGCAAGCAUAGGUUUUCCCAGACCAC,0.469
AUUUUCAGGAAAUCACUGUAUUAGGAAUGUGCAAUGACUUAUAUAAAUAAAAGCCAUUUUUAAAACUUUUGGGGCUUGUGUUCUAAUUAUUCCCCCCUUUUUUUUAUUUC,0.948
AGGCUGAGCUUCUGAUUCACCACCCCAGGGCCUCCUUAUAGUUCUCUGCACACAAUAGGUGCUUCUUGGAUGUUCUUGGGUUUGGAAAUAAGUGGAAAAUACGGGAUGUA,2.11
GAGCAAGUGACCGUUGAGGACAGGUGAUGUGAAUGUUUGUUCUAGAUUUAAUUCAGUUUUCUGAAUGGACACAGGGAGUUGGGAGUAUGUGUGUGUGUGUGUGUGUGUGU,21.9
AUGUGGCUCAGCAGCAAGAAAGGCAAGUUGCUCCUGCUGGGGCCCUGGACUCUGCCUUAGCUCCCACCUCUCAGCCUUGUUAUUGGGUUUCAUGCCCCUGGACCAGCCUU,0.854
